Measured values of several laboratories.
Lines come from different studies, so protocols differ.
Organism: Staphylococcus aureus

CC(C)[C@H](NC(=O)[C@H](CCCNC(=N)N)NC(=O)[C@H](Cc1ccccc1)NC(=O)[C@H](CS)NC(=O)[C@H](Cc1c[nH]c2ccccc12)NC(=O)[C@@H](N)CCCCN)C(=O)N[C@@H](CS)C(=O)N[C@@H](Cc1c[nH]c2ccccc12)C(=O)N[C@@H](CCCNC(=N)N)C(=O)N[C@@H](Cc1c[nH]c2ccccc12)C(=O)N[C@@H](Cc1ccccc1)C(=O)N[C@@H](CS)C(=O)N[C@@H](Cc1c[nH]c2ccccc12)C(=O)N[C@@H](CCCNC(=N)N)C(=O)N[C@@H](CCCCN)C(=O)N[C@@H](CS)C(=O)N[C@@H](CCCNC(=N)N)C(=O)O  MIC (broth microdilution; ATCC 29213, Mueller-Hinton broth; 16 to 20 h, 37 °C): 8.79 µg/mL
C#CCOc1ccc(CN[C@@]2(C)C[C@H](O[C@H]3[C@H](Oc4c5cc6cc4Oc4ccc(cc4Cl)[C@@H](O)[C@@H](NC(=O)[C@@H](CC(C)C)NC)C(=O)N[C@@H](CC(N)=O)C(=O)N[C@H]6C(=O)N[C@H]4C(=O)N[C@H](C(=O)N[C@H](C(=O)O)c6cc(O)cc(O)c6-c6cc4ccc6O)[C@H](O)c4ccc(c(Cl)c4)O5)O[C@H](CO)[C@@H](O)[C@@H]3O)O[C@@H](C)[C@H]2O)cc1OC  MIC (LIM-2 VISA): 10 µM
CC[C@H]1OC(=O)[C@H](C)[C@@H](OC(=O)Cc2ccccc2)[C@H](C)[C@@H](O[C@@H]2O[C@H](C)C[C@H](N(C)C)[C@H]2O)[C@](C)(OC)C[C@@H](C)C(=O)[C@H](C)[C@@H](O)[C@]1(C)O  MIC (microbial growth; BAA976): 8 µg/mL
COc1ccc2ccc(O)c(/C=N/[C@H]3CCCC[C@H]3/N=C/c3cccc(F)c3O)c2c1  MIC (bacterial growth, broth microdilution; vancomycin-intermediate): > 40 µM
CC(C)C[C@@H]1NC(=O)[C@H](CCCCN)NC(=O)CSC[C@@H](C(=O)N[C@@H](CCCCN)C(N)=O)NC(=O)[C@H](CC(C)C)NC(=O)[C@H](CC(C)C)NC(=O)[C@H](CC(C)C)NC(=O)[C@@H]2CSCC(=O)N[C@@H](CCCCN)C(=O)N[C@@H](CC(C)C)C(=O)N[C@@H](CCCCN)C(=O)N[C@@H](CCCCNC(=O)[C@H](CCCCN)NC1=O)C(=O)N[C@@H](CCCCN)C(=O)N[C@@H](CC(C)C)C(=O)N[C@@H](CC(C)C)C(=O)N2  MIC (broth microdilution; Newman, methicillin-susceptible): > 128 µg/mL
Cc1cc(C)c2nc3c(Br)cc(Br)c(O)c3nc2c1  MIC (broth microdilution; MRSA-2; 16 h, 37 °C): 0.1 µM
CCn1c(-c2ccc(Br)cc2)c(-c2ccc(Br)cc2)n(CC)c1=[Se]  MIC (microbial growth, broth dilution; ATCC700699 VISA; 24 h, drug-resistant strain): > 40 µM
CC[C@H](C)[C@H](NC(=O)[C@@H](CCCNC(=N)N)NC(=O)[C@H](CCCNC(=N)N)NC(=O)[C@@H]1CCCN1C(=O)[C@@H]1CCCN1C(=O)[C@H](CCCNC(=N)N)NC(=O)[C@@H]1CCCN1C(=O)[C@H](CCCNC(=N)N)NC(=O)[C@@H]1CCCN1C(=O)[C@H](CC(C)C)NC(=O)[C@H](Cc1ccc(O)cc1)NC(=O)[C@H](Cc1ccc(O)cc1)NC(=O)[C@@H]1CCCN1C(=O)[C@H](CCCCN)NC(=O)[C@H](CC(=O)O)NC(=O)[C@@H](N)C(C)C)C(=O)N[C@@H](Cc1ccc(O)cc1)C(=O)N[C@@H](CC(N)=O)C(=O)N[C@H](CCCNC(=N)N)C(N)=O  MIC (broth microdilution; DSM 6247; 18 h, 37 °C, 25% MHB2): > 128 µg/mL
Oc1c(Br)cc(Br)c2nc3cc(C(F)(F)F)ccc3nc12  MIC (broth microdilution; 25923): 0.05 µM
N=C(N)NCCC[C@@H]1NC(=O)[C@H](CCCNC(=N)N)NC(=O)[C@@H](CCCNC(=N)N)NC(=O)[C@H](C(c2ccccc2)c2ccccc2)NC(=O)[C@H](C(c2ccccc2)c2ccccc2)NC(=O)[C@H](C(c2ccccc2)c2ccccc2)NC(=O)[C@H](CCCNC(=N)N)NC1=O  MIC (1195201, multidrug-resistant): 4 µg/mL
CN[C@H](CC(C)C)C(=O)N[C@H]1C(=O)N[C@@H](CC(N)=O)C(=O)N[C@H]2C(=O)N[C@H]3C(=O)N[C@H](C(=O)N[C@H](C(=O)NCC(N)=O)c4cc(O)cc(O)c4-c4cc3ccc4O)[C@H](O)c3ccc(c(Cl)c3)Oc3cc2cc(c3O[C@@H]2O[C@H](CO)[C@@H](O)[C@H](O)[C@H]2O[C@H]2C[C@](C)(NCc3ccc(OCc4cn(CC(=O)N[C@H](C(=O)N[C@@H](CCN)C(=O)N[C@H]5CCNC(=O)[C@H]([C@@H](C)O)NC(=O)[C@H](CCN)NC(=O)[C@H](CCN)NC(=O)[C@H](CC(C)C)NC(=O)[C@@H](CC(C)C)NC(=O)[C@H](CCN)NC5=O)[C@@H](C)O)nn4)c(OC)c3)[C@H](O)[C@H](C)O2)Oc2ccc(cc2Cl)[C@H]1O  MIC (MSSA ATCC 29213): 0.093 µM
CC[C@H](C)[C@H](N)C(=O)NCC(=O)N[C@@H](CC(C)C)C(=O)N[C@H](CCC(=O)O)C(=O)N[C@H](C(=O)N[C@H]1CCCCNC(=O)[C@H](CC(N)=O)NC(=O)[C@@H](CC(=O)O)NC(=O)[C@H](Cc2c[nH]cn2)NC(=O)[C@@H](Cc2ccccc2)NC(=O)[C@H]([C@@H](C)CC)NC(=O)[C@@H](CCCN)NC1=O)[C@@H](C)CC  MIC (ATCC 29213 methicillin-susceptible; 18 h, 37 °C, 0.3 mM ZnSO4 LB): > 64 µg/mL
CC(C)CCCCCCCCC/C=C/C(=O)N[C@@H](CC(N)=O)C(=O)N[C@H]1CNC(=O)[C@@H]2CCCN2C(=O)[C@H](C(C)C)NC(=O)[C@@H](CN)NC(=O)CNC(=O)[C@H](CC(=O)O)NC(=O)CNC(=O)[C@H](CC(=O)O)NC(=O)[C@H](CC(=O)O)NC(=O)[C@H]2CCCCN2C1=O  MIC (broth microdilution; VISA LIM strain 2, Mueller-Hinton broth, Mg2+ 10 mg/L; 16 h, together with: Ca2+ 5 mM): 2 µg/mL

For quick reference, copied from above:
Cc1cc(C)c2nc3c(Br)cc(Br)c(O)c3nc2c1  MIC (broth microdilution; MRSA-2; 16 h, 37 °C): 0.1 µM
CCn1c(-c2ccc(Br)cc2)c(-c2ccc(Br)cc2)n(CC)c1=[Se]  MIC (microbial growth, broth dilution; ATCC700699 VISA; 24 h, drug-resistant strain): > 40 µM
